Assay results gathered from unrelated publications.
Compare with care: the assays were run in different laboratories. Values joined by “and” are separate records of one study, mostly repeats; a detail may differ. Numbers after ± are the reported error.

SMILES | assay | test system | setting | scale | endpoint | value
CN1CCN(S(=O)(=O)c2cc([N+](=O)[O-])ccc2N(CCOS(C)(=O)=O)CCOS(C)(=O)=O)CC1 |  | naive female NSG mice, plasma | intraperitoneal, 25 mg/kg |  | AUC(0-t) | 3.25 µM·h
COc1ccc(-c2c(-c3ccc(C#N)c(F)c3)nc(N3CCC(N)CC3)n(C)c2=O)cc1F | item: Vomiting | human patients | oral, dose not given, any grade, dose escalation, NG |  | treatment-related adverse event incidence | 6%
CN(C(=O)n1cnc(-c2ccc[n+]([O-])c2)c1)C1CCCCC1 |  | Wistar rat, cerebral cortex | oral, 10 mg/kg/day, 24 h, repeated 5 days |  | concentration | 8.1 ± 0.3 ng/g
C[C@@H]1OC(=O)NN=C1c1ccc(-c2ccc(F)cc2)c(C(F)(F)F)c1 | phase I trial, item: abdominal distension all grades | human patients | 5 mg loading then 0.25 mg daily |  | patients with adverse event | 0%
COc1ncnn2ccc(-c3cnc4nc(C)n(Cc5nnc([C@@H](C)F)o5)c4c3)c12 |  | human | oral, dose not given, grade 4 |  | patients with dehydration | 0%
Cc1cccc(Cn2nc(C3CC3)c3c(NC(=O)c4cnc5cc(OCCN6CCN(C)CC6)ccn45)cccc32)n1 | CTCAE v4.03, item: decreased appetite | PD-1/PD-L1 inhibitor-refractory patients | oral, dose not given, together with: pembrolizumab IV every 3 weeks |  | all-cause adverse events | 15.8%
CN1CC[C@@H](c2c(O)cc(O)c3c(=O)cc(-c4ccc(C(F)(F)F)cc4Cl)oc23)[C@@H]1CO | item: Vomiting | AML | oral, 200 mg, intermittent dosing |  | patients with adverse event | 10%
CC(C)C[C@H](NC(=O)[C@H](CCCCN)NC(=O)OCC1c2ccccc2-c2ccccc21)C(=O)N[C@H](C(=O)N[C@@H](Cc1ccccc1)C(=O)N[C@@H](Cc1ccccc1)C(=O)N[C@@H](CCCCN)C(=O)NCC(=O)N[C@@H](Cc1ccccc1)C(=O)N[C@@H](C)C(=O)N[C@@H](Cc1c[nH]c2ccccc12)C(=O)N[C@@H](CC(N)=O)C(=O)N[C@H](C(=O)N[C@H]1CSSC[C@@H](C(=O)N[C@@H](Cc2c[nH]cn2)C(=O)N[C@@H](CCCNC(=N)N)C(=O)N[C@@H](CCCNC(=N)N)C(=O)N[C@@H](C)C(=O)N[C@@H](CC(N)=O)C(N)=O)NC(=O)[C@H](C(C)C)NC(=O)[C@H](CCCNC(=N)N)NC(=O)[C@H](C(C)C)NC(=O)CNC(=O)[C@H](CC(N)=O)NC(=O)[C@H](CCCNC(=N)N)NC(=O)[C@H](Cc2ccc(O)cc2)NC(=O)[C@H](C(C)C)NC1=O)C(C)C)C(C)C |  | ICR mice, blood | intraductal mammary, 10 mg/kg, day 5 |  | plateletcrit | 0.03 ± 0.01%
CC[C@H](C)[C@H](NC(=O)[C@H](CCCCN)NC(=O)[C@H](CC(=O)O)NC(=O)[C@H](CC(C)C)NC(=O)[C@@H](NC(=O)[C@H](CC(N)=O)NC(=O)[C@H](CC(C)C)NC(=O)[C@@H](NC(=O)[C@H](Cc1ccccc1)NC(=O)[C@H](CCCCN)NC(=O)[C@H](CCCCN)NC(=O)CNC(=O)[C@H](C)NC(=O)[C@H](CC(N)=O)NC(=O)[C@H](CCCCN)NC(=O)[C@H](Cc1ccccc1)NC(=O)[C@H](CC(N)=O)NC(=O)[C@H](CCC(=O)O)NC(=O)[C@H](Cc1c[nH]c2ccccc12)NC(=O)[C@H](CC(C)C)NC(=O)[C@@H](N)CO)[C@@H](C)CC)[C@@H](C)CC)C(=O)N[C@@H](CCCNC(=N)N)C(N)=O |  | horse erythrocytes | 2 h, 37 °C | relative to: Triton X-100 | HC50 | > 128 µM
CC[C@H](C)[C@H](NC(=O)[C@H](CCCCN)NC(=O)[C@H](CCC(=O)O)NC(=O)[C@H](CCCCN)NC(=O)[C@H](CO)NC(=O)[C@H](CCCCN)NC(=O)[C@H](CCCNC(=N)N)NC(=O)[C@H](Cc1ccccc1)NC(=O)[C@H](Cc1ccccc1)NC(=O)[C@H](CC(=O)O)NC(=O)CNC(=O)[C@H](CC(C)C)NC(=O)[C@@H](N)CC(C)C)C(=O)NCC(=O)N[C@@H](CCCCN)C(=O)N[C@@H](CCC(=O)O)C(=O)N[C@@H](Cc1ccccc1)C(=O)N[C@@H](CCCCN)C(=O)N[C@@H](CCCNC(=N)N)C(=O)N[C@H](C(=O)N[C@H](C(=O)N[C@@H](CCC(N)=O)C(=O)N[C@@H](CCCNC(=N)N)C(=O)N[C@H](C(=O)N[C@@H](CCCCN)C(=O)N[C@@H](CC(=O)O)C(=O)N[C@@H](Cc1ccccc1)C(=O)N[C@@H](CC(C)C)C(=O)N[C@@H](CCCNC(=N)N)C(=O)N[C@@H](CC(N)=O)C(=O)N[C@@H](CC(C)C)C(=O)N[C@H](C(=O)N1CCC[C@H]1C(=O)N[C@@H](CCCNC(=N)N)C(=O)N[C@H](C(=O)N[C@@H](CCC(=O)O)C(=O)N[C@@H](CO)C(=O)O)[C@@H](C)O)C(C)C)[C@@H](C)CC)C(C)C)[C@@H](C)CC | LC-MS | buffer with human neutrophil elastase | 40 µM, 60 min, pH 7.5, 37 °C | relative to: 0 h | remaining intact peptide | 5.19% and 6.52%
CCN(CCO)CCCC(C)Nc1ccnc2cc(Cl)ccc12 (stereo not drawn) |  | newly diagnosed glioblastoma patients | oral, 400 mg/dose, grade 3, together with: radiotherapy plus temozolomide |  | febrile neutropenia patients | 33%
C=CC(=O)Nc1cc(Nc2nccc(Nc3cc(Cl)c(F)cc3C(C)(C)O)n2)c(OC)cc1N1CC[C@@H](N(C)C)C1 | treatment-emergent adverse events | human | oral, 400 mg, phase I clinical trial |  | incidence of blood creatine phosphokinase increased | 60%
CCCCCOc1ccc(-c2ccc(-c3ccc(C(=O)N[C@H]4C[C@@H](O)[C@@H](OCC[N+](C)(C)C)NC(=O)[C@@H]5[C@@H](O)[C@@H](C)CN5C(=O)[C@H]([C@@H](C)O)NC(=O)[C@H]([C@H](O)[C@@H](O)c5ccc(O)cc5)NC(=O)[C@@H]5C[C@@H](O)CN5C(=O)[C@H]([C@@H](C)O)NC4=O)cc3)cc2)cc1 |  | adult ICU patients, mITT, serum | dose not given, Follow-up |  | bilirubin | 12.2 µmol/L
CCc1ccc(CC/C=C/c2ccc3c(c2)C(=O)CC3)cc1 |  | Sprague-Dawley rat, female | oral, 450 mg/kg/day, 14 days |  | ALP serum activity | 136 U/L
COc1ncccc1-c1cnn2ccc(N3CCN(C(=O)OC(C)C)CC3)nc12 |  | rat, STZ model, brain | oral, 3 mg/kg, 240 min |  | drug concentration | 950 nM
COc1ccc(C[C@@H]2NC(=O)[C@H]([C@@H](C)O)NC(=O)[C@@H]3[C@@H]4CCN3C(=O)[C@@H]3Cc5cn(c6ccc(F)cc56)CCCCCCN(Cc5ccc(cc5)CCNC(=O)[C@]5(C)CCCN5C2=O)C(=O)CCC(=O)N[C@@H](C)C(=O)N[C@H](CNC(=O)CCCCC[N+](C)(C)C)C(=O)N[C@@H](Cc2cccc(c2)CNC(=O)CO4)C(=O)N3)cc1 | item: Hematuria | humans | concentration not given, Study-001 |  | participants with adverse event | 0%
COc1ccc2nc3cc(Cl)ccc3c(Nc3cc(CN4CCCC4)c(O)c(CN4CCCC4)c3)c2n1 |  | mouse, blood | intraperitoneal, 57 mg/kg |  | red blood cell count | 8.13 10¹²/L
CC(=O)c1c(C)c2cnc(Nc3ccc(C4CCN(CCS(C)(=O)=O)CC4)cn3)nc2n(C2CCCC2)c1=O |  | HR+/HER2- advanced breast cancer patients | oral, 100 mg bid, all grades, monotherapy arm |  | patients with anaemia | 40%

SMILES | assay | test system | setting | scale | endpoint | value
CC(C)c1nc(N(C)S(C)(=O)=O)nc(-c2ccc(F)cc2)c1/C=C/[C@@H](O)C[C@@H](O)CC(=O)O |  | healthy human subjects | oral, dose not given, study CL-0537 safety set |  | incidence of Laceration | 3.6%
CC(C)[C@H](C(=O)O[C@H](C#N)c1cccc(Oc2ccccc2)c1)c1ccc(Cl)cc1 | item: CYP3A4 | human, age 6 months |  |  | enzyme contribution to clearance | 1.63%
Clc1ccc(Cl)c(-c2cc(Cl)ccc2Cl)c1 |  | Sprague Dawley rat female, serum | intraperitoneal, 100 mg/kg, 3 weeks |  | concentration | 15 ng/g
COc1cc2c(cc1OC)CN(CCc1ccc(NC(=O)c3cccc4c(=O)c5cccc(OC)c5[nH]c34)cc1)CC2 |  | CD-1 mouse, male, plasma | intraperitoneal, 30 mg/kg |  | AUC(0-inf) | 23300 ng·h/mL
O=C(O)CCCOc1ccc(F)cc1-c1cc(-c2ccccc2C(F)(F)F)n(-c2ccccc2)n1 |  | male Crl:CD(SD) rats, thymus | intravenous, 25 µg/kg, 14 d |  | relative organ weight | 0.11 ± 0.02 g%
NCCCC[C@@H]1NC(=O)[C@@H](Cc2c[nH]c3ccccc23)NC(=O)[C@H](c2ccccc2)NC(=O)[C@@H]2C[C@@H](OC(=O)NCCN)CN2C(=O)[C@H](Cc2ccccc2)NC(=O)[C@H](Cc2ccc(OCc3ccccc3)cc2)NC1=O |  | healthy volunteers | subcutaneous, 600 µg twice daily, day 5, 1.00 h |  | QTcI change from baseline | 4.3 ms
O=C(Nc1ccc2c(c1)B(O)OC2)c1cccc(OCc2ccccc2)c1 | PAMPA | pre-coated trilayer membrane | 200 µM, 5 h, pH 7.4, donor plate, PBS |  | donor concentration | 166 ± 25.1 µM
CO[C@H]1C[C@@H]2CC[C@@H](C)[C@@](O)(O2)C(=O)C(=O)N2CCCC[C@H]2C(=O)O[C@H]([C@H](C)C[C@@H]2CC[C@@H](OC(=O)NCCOCCOCCOCCOCCOCCOCCOCCOCCC(=O)N3CCc4cc(Cn5nc(-c6ccc7oc(N)nc7c6)c6c(N)ncnc65)ccc4C3)[C@H](OC)C2)C[C@@H](O)[C@H](C)/C=C(\C)[C@@H](O)[C@@H](OC)C(=O)[C@H](C)C[C@H](C)/C=C/C=C/C=C/1C | phase 1 dose escalation | advanced solid tumour patients | intravenous, 16 mg weekly, grade ≥3 |  | deaths due to TRAEs | 0%
COc1cc2c(Oc3ccc4[nH]c(C)cc4c3F)ccnc2cc1OCC1(N)CC1 | item: grade 1 or 2 mouth ulcer | paediatric high-risk refractory sarcoma | 8 mg |  | incidence of adverse event | 6.7%
O=C(Nc1ccccc1)C1CCN(C(=O)Oc2cccnc2)CC1 | Bond-Lader VAS | healthy women | 100 mg | relative to: pre-dose baseline, direction not given | change in calmness score | 17
C[C@]1(CO)Cc2ncn(-c3ccc(C#N)c(Cl)c3)c2C(=O)O1 |  | human | 5 mg single dose |  | subjects with severe TEAEs | 0%
O=C1Nc2cc3[nH]nc(-c4ccncc4)c3cc2CN1Cc1ccccc1 | item: Lymphopenia | patients with advanced solid tumours | intravenous, dose not given, schedules 1 and 2 |  | patients with grade ≥3 TEAE | 6%
C[C@@H](NC(=O)N1C(=O)[C@H](Cc2ccnc(N)c2)[C@H]1C(=O)O)C1CCCCC1 |  | healthy adult Chinese volunteers | continuous intravenous infusion, 2.25 mg/kg/h, 5-day infusion, CTCAE 5.0 grading |  | incidence of urine occult blood positive | 0%
C=CCNc1c(O)cc2c(O)c1C[C@@H](C)C[C@H](OC)[C@H](O)[C@@H](C)/C=C(\C)[C@H](OC(N)=O)[C@@H](OC)/C=C\C=C(/C)C(=O)N2 | item: nausea | unresectable or metastatic GIST/STS | intravenous, dose not given, all patients |  | patients with related AEs | 43%
CC(C)C[C@H](NC(=O)[C@H](CCC1CCCCC1)NC(=O)[C@@H]1CCCN1C(=O)c1ccc(F)cc1)C(=O)NC(C)(C)C(=O)N[C@@H](CC(C)C)C(=O)N[C@@H](CC(C)C)C(=O)NC(C)(C)C(=O)NC(C)(C)C(=O)NCCC(=O)NCCN(C)CC(F)F | circular dichroism | phosphate buffer | pH 7.4, 20 °C |  | alpha-helix content | 11.4%
Cn1cncc1-c1c(F)cncc1NC(=O)c1c(N)nn2cc(F)cnc12 |  | human patients | oral, 130 mg once daily |  | grade ≥3 hyperkalaemia incidence | 11%
O=S(=O)(Nc1ccccc1)c1ccc(NC(=S)Nc2ccccc2)cc1 | item: LY% | male mouse, blood | oral, 80 mg/kg daily, 14 days |  | blood cell fraction | 74.6%
CN[C@@H](C)C(=O)N[C@H]1CN(S(=O)(=O)c2cccc(S(=O)(=O)N3CC[C@H]4CC[C@@H](C(=O)NC(c5ccccc5)c5ccccc5)N4C(=O)[C@@H](NC(=O)[C@H](C)NC)C3)c2)CC[C@H]2CC[C@@H](C(=O)NC(c3ccccc3)c3ccccc3)N2C1=O |  | patients with advanced solid tumours | 0.3 mg, phase I monotherapy |  | treatment-related AST elevation incidence | 0%

Excerpt of the above:
SMILES | assay | test system | setting | scale | endpoint | value
COc1ccc2nc3cc(Cl)ccc3c(Nc3cc(CN4CCCC4)c(O)c(CN4CCCC4)c3)c2n1 |  | mouse, blood | intraperitoneal, 57 mg/kg |  | red blood cell count | 8.13 10¹²/L
CC(C)C[C@H](NC(=O)[C@H](CCCCN)NC(=O)OCC1c2ccccc2-c2ccccc21)C(=O)N[C@H](C(=O)N[C@@H](Cc1ccccc1)C(=O)N[C@@H](Cc1ccccc1)C(=O)N[C@@H](CCCCN)C(=O)NCC(=O)N[C@@H](Cc1ccccc1)C(=O)N[C@@H](C)C(=O)N[C@@H](Cc1c[nH]c2ccccc12)C(=O)N[C@@H](CC(N)=O)C(=O)N[C@H](C(=O)N[C@H]1CSSC[C@@H](C(=O)N[C@@H](Cc2c[nH]cn2)C(=O)N[C@@H](CCCNC(=N)N)C(=O)N[C@@H](CCCNC(=N)N)C(=O)N[C@@H](C)C(=O)N[C@@H](CC(N)=O)C(N)=O)NC(=O)[C@H](C(C)C)NC(=O)[C@H](CCCNC(=N)N)NC(=O)[C@H](C(C)C)NC(=O)CNC(=O)[C@H](CC(N)=O)NC(=O)[C@H](CCCNC(=N)N)NC(=O)[C@H](Cc2ccc(O)cc2)NC(=O)[C@H](C(C)C)NC1=O)C(C)C)C(C)C |  | ICR mice, blood | intraductal mammary, 10 mg/kg, day 5 |  | plateletcrit | 0.03 ± 0.01%
